Measurements pooled from the literature.
Parts stem from different laboratories: compare values within a part only. Changes are numbered by the printed parent chain.
Sequence of UniProt Q9P1W9 (whole entry, looked up): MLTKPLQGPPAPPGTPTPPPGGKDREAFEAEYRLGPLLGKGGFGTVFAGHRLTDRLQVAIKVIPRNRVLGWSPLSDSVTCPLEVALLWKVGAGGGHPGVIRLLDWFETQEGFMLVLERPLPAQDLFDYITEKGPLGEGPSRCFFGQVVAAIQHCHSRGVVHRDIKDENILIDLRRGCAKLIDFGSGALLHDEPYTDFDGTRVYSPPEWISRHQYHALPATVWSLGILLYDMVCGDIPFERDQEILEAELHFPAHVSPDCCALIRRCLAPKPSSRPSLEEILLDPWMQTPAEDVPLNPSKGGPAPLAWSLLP

Study 1
Target: Prothrombin, mature alpha-thrombin (F2, Homo sapiens, UniProt P00734)
Method: aptamer microarray, sandwich
Molecule type: DNA with 2'F-ANA
Medium: in vitro
Concentration: 200 nM
Setting: whole 15-mer aptamer, many near background
Added: Cy3 exosite-II aptamer, 400 nM
Direction: higher = stronger binding
Strand: GGTTGGTGTGGTTGG
Modification	mean fluorescence intensity [a.u.]
2'F-ANA at 1 4 5 11 12 13 15	65.8
2'F-ANA at 2 5 9 10 12 13	79.1
2'F-ANA at 1 6 8 10 11 14 15	47.7
2'F-ANA at 2 5 7 8 10 11 13 15	49.1
2'F-ANA at 3 4 8 9 11 13 14 15	279
2'F-ANA at 4 8 9 10 12 14 15	90.1
2'F-ANA at 1 2 3 4 5 6 7 9 13 14 15	50
2'F-ANA at 1 4 5 6 11 14	48.9

Study 2
Target: PABPC1L2, full length, GST fusion (mouse, UniProt A0ABA7IW68)
Method: RNAcompete
Molecule type: RNA
Medium: in vitro
Concentration: 20 nM
Setting: 7-mer, probes averaged, single round
Baseline: mean of 7-mers
Direction: higher = stronger binding
Target sequence (chain): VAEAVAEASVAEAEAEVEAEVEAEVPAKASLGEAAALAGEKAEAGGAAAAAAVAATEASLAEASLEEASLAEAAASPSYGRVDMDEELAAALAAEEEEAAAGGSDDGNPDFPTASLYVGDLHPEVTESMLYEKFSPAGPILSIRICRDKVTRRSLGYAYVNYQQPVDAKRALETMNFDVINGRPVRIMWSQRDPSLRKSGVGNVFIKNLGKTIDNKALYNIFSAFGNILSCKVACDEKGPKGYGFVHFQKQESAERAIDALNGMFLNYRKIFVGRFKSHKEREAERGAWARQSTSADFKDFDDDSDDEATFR
Strand	7-mer Z-score
UGGAAGA	0.229
ACCUCAG	-0.171
GCGGAGG	0.234
UUACUAU	-0.151
CUGAAUA	-0.0174
CCUUGUU	-0.465
AACACGA	0.726
GAUAGGC	-0.0591

Study 3
Target: CCNE1, cyclin fold, Cln2 fusion (human)
Method: yeast growth competition, sequencing
Medium: yeast
Setting: weak parent motif
Baseline: not given
Direction: higher = stronger binding
Starting sequence: WEE1 docking peptide (human); HKTFRKLRLFDTP
Substitution	normalised enrichment score
F4P	0.019
R8P	-0.159
F4W	1.53
T12G	1.59
F10M	-0.0245
F4R	0.884
T12S	0.651
R5N	-7.1

Single results of other studies
SMILES	target	assay	conditions	how to read	quantity	value
CS(=O)(=O)CCNCc1ccc(-c2ccc3ncnc(Nc4ccc(OCc5cccc(F)c5)c(Cl)c4)c3c2)o1	Serine/threonine-protein kinase pim-2 (PIM2, Homo sapiens, UniProt Q9P1W9)	enzyme activity, inhibitor	0.5 µM	baseline: control	remaining activity	102%
